Assay results pooled from the literature.
Each numbered part is a random draw from the data of one study; scales do not carry over between parts. Substitutions count along the parent as printed.
Sequence of UniProt P08922 (whole entry, looked up): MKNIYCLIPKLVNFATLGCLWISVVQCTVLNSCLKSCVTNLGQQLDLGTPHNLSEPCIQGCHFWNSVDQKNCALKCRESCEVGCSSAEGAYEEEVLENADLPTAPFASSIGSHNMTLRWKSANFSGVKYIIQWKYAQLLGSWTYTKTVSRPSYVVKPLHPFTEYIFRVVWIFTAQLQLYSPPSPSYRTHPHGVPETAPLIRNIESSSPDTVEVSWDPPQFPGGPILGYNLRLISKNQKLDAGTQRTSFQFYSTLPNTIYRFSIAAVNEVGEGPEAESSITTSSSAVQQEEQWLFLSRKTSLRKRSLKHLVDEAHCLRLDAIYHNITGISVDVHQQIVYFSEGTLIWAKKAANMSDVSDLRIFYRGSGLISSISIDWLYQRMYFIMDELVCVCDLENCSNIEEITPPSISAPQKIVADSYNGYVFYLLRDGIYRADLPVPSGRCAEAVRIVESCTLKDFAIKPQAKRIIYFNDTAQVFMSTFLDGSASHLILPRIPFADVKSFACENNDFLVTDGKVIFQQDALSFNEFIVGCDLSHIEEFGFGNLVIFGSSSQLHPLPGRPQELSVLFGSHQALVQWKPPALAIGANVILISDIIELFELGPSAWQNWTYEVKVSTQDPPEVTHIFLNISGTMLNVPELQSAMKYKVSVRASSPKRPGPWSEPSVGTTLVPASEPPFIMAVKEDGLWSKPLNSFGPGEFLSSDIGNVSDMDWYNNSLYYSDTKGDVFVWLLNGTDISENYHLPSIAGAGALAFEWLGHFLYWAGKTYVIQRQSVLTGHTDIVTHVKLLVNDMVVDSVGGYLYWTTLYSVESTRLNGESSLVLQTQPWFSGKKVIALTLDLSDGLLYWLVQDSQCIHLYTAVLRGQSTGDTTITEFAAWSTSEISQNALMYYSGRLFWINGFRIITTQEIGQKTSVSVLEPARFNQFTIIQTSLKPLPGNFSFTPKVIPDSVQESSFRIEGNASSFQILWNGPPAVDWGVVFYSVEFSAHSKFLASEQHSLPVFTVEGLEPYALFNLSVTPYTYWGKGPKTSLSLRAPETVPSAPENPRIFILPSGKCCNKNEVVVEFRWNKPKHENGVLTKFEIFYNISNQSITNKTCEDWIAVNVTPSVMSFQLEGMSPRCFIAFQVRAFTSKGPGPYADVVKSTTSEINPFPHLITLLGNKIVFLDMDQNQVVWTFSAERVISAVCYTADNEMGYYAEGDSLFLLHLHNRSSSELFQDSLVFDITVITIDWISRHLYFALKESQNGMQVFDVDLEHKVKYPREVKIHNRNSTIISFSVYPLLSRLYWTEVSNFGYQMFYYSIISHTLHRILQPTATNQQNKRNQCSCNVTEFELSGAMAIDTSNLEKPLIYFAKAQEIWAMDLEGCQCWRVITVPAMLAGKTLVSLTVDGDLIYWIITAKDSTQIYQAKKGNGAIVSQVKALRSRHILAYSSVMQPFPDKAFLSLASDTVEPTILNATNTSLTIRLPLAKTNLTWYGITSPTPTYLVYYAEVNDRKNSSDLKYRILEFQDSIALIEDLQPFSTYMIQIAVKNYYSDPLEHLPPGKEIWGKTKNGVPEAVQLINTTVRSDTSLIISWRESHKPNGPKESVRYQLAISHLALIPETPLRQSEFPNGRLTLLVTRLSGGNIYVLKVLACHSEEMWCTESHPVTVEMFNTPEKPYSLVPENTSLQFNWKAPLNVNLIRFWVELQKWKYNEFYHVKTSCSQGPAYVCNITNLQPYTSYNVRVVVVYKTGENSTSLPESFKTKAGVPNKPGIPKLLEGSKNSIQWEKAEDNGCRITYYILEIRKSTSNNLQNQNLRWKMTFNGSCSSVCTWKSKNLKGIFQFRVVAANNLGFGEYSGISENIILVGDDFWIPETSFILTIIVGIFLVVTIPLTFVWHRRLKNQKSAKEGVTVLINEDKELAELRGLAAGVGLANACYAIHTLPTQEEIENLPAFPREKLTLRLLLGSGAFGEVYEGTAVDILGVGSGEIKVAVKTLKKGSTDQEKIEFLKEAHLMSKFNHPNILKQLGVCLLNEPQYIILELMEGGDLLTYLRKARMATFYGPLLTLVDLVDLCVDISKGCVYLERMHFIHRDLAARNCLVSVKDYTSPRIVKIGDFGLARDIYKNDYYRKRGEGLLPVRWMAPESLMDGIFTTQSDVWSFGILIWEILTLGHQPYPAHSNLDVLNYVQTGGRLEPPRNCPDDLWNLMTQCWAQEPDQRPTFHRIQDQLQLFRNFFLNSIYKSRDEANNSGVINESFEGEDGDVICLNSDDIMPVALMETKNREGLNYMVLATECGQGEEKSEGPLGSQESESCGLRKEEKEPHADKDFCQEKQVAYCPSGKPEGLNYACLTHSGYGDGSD

Set 1
Target: Interferon regulatory factor 7, full length, phosphomimetic (IRF7, Homo sapiens, UniProt Q92985, residues 1-503, S471D/S472D/S475D/S476D/S477D/S483D/S484D/S487D)
Method: protein-binding microarray
Molecule type: double-stranded DNA, one strand shown
Matrix: in vitro
Concentration: 2200 nM top
Setting: 60-bp whole probe
Together with: salmon DNA 0.4 mg/ml
Baseline: random background probes
Reading: higher = stronger binding
Constant ends, left off below: GCCTAGCAC … GTCTTGATTCGCTTGACGCTGCTG
Residues (chain): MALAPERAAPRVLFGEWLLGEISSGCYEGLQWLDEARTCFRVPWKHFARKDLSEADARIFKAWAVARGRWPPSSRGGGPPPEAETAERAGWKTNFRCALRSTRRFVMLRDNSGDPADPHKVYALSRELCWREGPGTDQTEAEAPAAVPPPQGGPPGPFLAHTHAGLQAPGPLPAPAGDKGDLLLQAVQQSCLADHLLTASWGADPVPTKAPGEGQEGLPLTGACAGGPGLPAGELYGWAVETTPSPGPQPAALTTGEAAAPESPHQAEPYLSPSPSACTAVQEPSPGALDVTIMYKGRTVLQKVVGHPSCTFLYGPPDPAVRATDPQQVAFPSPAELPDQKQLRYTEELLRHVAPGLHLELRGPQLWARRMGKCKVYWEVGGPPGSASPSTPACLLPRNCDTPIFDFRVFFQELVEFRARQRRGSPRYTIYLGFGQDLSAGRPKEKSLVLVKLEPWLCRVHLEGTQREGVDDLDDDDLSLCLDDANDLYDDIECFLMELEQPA
Sequence	fitted relative affinity [z-score]
GACGGGTTCGGGTATCGGGACGTGCTA	0.195
GACGCTTTCCTTATCCTGACGTGCTAG	3.64
GACGATTACGGGTATCGAGACGTGCTA	0.00376
TCATCCCTAATTCTGATACTGTGCTAG	1.56
TTAGATATGAGTCTCGATTAGTGCTAG	0.0136
ATTCATATATATATGAAAAAGTGCTAG	0.151
GACGATTTCGGGTATCGAGACGTGCTA	3
TCACTGTTCTTTTCAGTACTGTGCTAG	1.97

Set 2
Target: CEP164, C-terminal peptide (human)
Method: DHFR complementation, deep sequencing
Matrix: yeast
Setting: single substitutions, model-inferred values
Baseline: wild type
Reading: higher = weaker binding
Starting sequence: PDZK1, PDZ domain 2 (human); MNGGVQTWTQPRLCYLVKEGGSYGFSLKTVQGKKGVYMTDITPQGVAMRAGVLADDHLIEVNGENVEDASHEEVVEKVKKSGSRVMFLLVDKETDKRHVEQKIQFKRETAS; partner HNRVKVYRF
Change	binding free energy change
A110Y	-0.0699 kcal/mol
N62H	0.704 kcal/mol
V17F	0.331 kcal/mol
A110R	-0.134 kcal/mol
G63I	0.594 kcal/mol
A54H	0.0141 kcal/mol
T9C	-0.0399 kcal/mol
N2C	-0.0936 kcal/mol

Mixed results
NLK: Serine/threonine-protein kinase NLK (NLK, Homo sapiens, UniProt Q9UBE8)
Sequence of UniProt Q9UBE8 (whole entry, looked up): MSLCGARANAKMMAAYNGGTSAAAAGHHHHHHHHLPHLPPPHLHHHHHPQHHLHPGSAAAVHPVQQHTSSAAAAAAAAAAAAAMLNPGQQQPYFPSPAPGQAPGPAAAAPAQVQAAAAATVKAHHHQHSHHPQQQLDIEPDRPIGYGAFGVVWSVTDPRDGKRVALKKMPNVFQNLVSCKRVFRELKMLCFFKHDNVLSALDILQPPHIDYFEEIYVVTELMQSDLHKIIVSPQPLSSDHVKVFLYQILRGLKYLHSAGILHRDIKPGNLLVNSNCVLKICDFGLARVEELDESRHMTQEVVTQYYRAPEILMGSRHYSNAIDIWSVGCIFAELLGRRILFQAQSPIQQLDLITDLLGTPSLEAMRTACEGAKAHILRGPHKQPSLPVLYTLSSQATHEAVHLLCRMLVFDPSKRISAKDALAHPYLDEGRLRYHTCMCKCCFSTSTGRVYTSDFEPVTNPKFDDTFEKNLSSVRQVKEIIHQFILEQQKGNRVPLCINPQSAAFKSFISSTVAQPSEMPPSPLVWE
Compound	target	test	conditions	how to read	measurement	value
COc1ccc(S(=O)(=O)N(CCO)c2ccccc2CN(C)CC=Cc2ccc(Cl)cc2)cc1	NLK	enzyme activity, inhibitor	0.5 µM	baseline: control	remaining activity	101%
CS(=O)(=O)c1cc(C2(NC(=O)c3cncc4c3cnn4-c3ccc(F)cc3)CC2)ccn1	Proto-oncogene tyrosine-protein kinase ROS (ROS1, Homo sapiens, UniProt P08922)	cell-free assay, competition with immobilised ligand	1 µM	–	remaining binding	100%
N#CC(=C(N)Sc1ccc(N)cc1)c1ccccc1C(F)(F)F	NLK	enzyme activity, inhibitor	0.5 µM	baseline: control	remaining activity	108%

Excerpt of the above (set 2):
Change	binding free energy change
A110R	-0.134 kcal/mol
G63I	0.594 kcal/mol
